Assay results pooled from the literature.
Each line is one published result; not all experiments were run side by side. ± marks the error that the study gave.

SMILES | organism | assay | test system | setting | IC50
O=C1CSC(=S)N1/N=C/c1cn(Cc2ccc(F)cc2)c2ccc([N+](=O)[O-])cc12 | Trypanosoma equiperdum | – | trypomastigotes, IVM-t1 | – | > 58 µM
O=C1C(=O)N(CC#CCN2CCN(c3ccnc4cc(Cl)ccc34)CC2)c2ccccc21 | Tritrichomonas foetus | growth | D1 | – | 22.2 µM
O=C1C2=C(Nc3ccccc3SC2c2ccc(Br)cc2)c2ccccc21 (stereo not drawn) | Chlamydia trachomatis | inclusion formation, immunofluorescence imaging | HEp-2, serovar L2 | 24 h post-infection, added 8 h post-infection | 7.5 ± 1.01 µg/mL
C[C@H]1[C@H](C)CC[C@]2(C(=O)O)CC[C@]3(C)C(=CC[C@@H]4[C@@]5(C)CC[C@H](O)C(C)(C)[C@@H]5CC[C@]43C)[C@H]12 | Eimeria tenella | parasite growth | – | 24 h | 20.1 µM
N#Cc1ccc(C2SCCNC3=C2C(=O)c2ccccc23)cc1 (stereo not drawn) | Chlamydia trachomatis | inclusion formation, immunofluorescence imaging | HEp-2, serovar L2 | 24 h post-infection, added 8 h post-infection | > 25 µg/mL
C#CCn1cc(/C=N/N2C(=O)CSC2=S)c2cc([N+](=O)[O-])ccc21 | Trypanosoma equiperdum | – | trypomastigotes, IVM-t1 | – | > 59 µM
CCC(=O)Nc1cc(C(=O)Nc2ccc(C(C)(C)C)cc2)ccc1O | Enterovirus A | cytopathic effect | Vero, EV71 | 48 h | 9.1 µM
NC(=O)c1ncn([C@@H]2O[C@H](CO)[C@@H](O)[C@H]2O)n1 | Porcine epidemic diarrhea virus | cytopathic effect, SRB | Vero | 48 h | 4.1 µg/mL
C[C@@H]1[C@H](O)[C@@H](C)/C=C/C=C/C=C/C=C/C=C/C=C/C=C/[C@H](O[C@@H]2O[C@H](C)[C@@H](O)[C@H](N)[C@@H]2O)C[C@@H]2O[C@](O)(C[C@@H](O)C[C@@H](O)[C@H](O)CC[C@@H](O)C[C@@H](O)CC(=O)O[C@H]1C)C[C@H](O)[C@H]2C(=O)O | Leishmania donovani | parasite growth | THP-1 | intracellular, amastigote | 0.08 µM
CCC(=O)Nc1cc(C(=O)Nc2ccc(C(C)C)cc2)ccc1OC | Enterovirus A | cytopathic effect | Vero, EV71 | 48 h | 8.41 µM
O=[N+]([O-])c1ccc2[nH]ccc2c1 | Trypanosoma equiperdum | – | trypomastigotes, IVM-t1 | – | > 154 µM
CCC(=O)Nc1cc(C(=O)Nc2ccc(C#N)cc2)ccc1OC | Enterovirus A | cytopathic effect | Vero, EV71 | 48 h | > 68.8 µM
O=C1C(=O)N(CC#CCN2CCN(c3ccnc4cc(Cl)ccc34)CC2)c2ccc(Cl)cc21 | Tritrichomonas foetus | growth | D1 | – | 11.3 µM
CCC(=O)Nc1cc(C(=O)Nc2ccc(N3CCN(C)CC3)cc2)ccc1OC | Enterovirus A | cytopathic effect | Vero, EV71 | 48 h | > 168 µM
O=C1CSC(=S)N1/N=C/c1cn(Cc2cccc(Cl)c2)c2ccc([N+](=O)[O-])cc12 | Trypanosoma equiperdum | – | trypomastigotes, IVM-t1 | – | > 56 µM
CNc1cc(C(=O)CNc2ccccc2)ccc1OC | Enterovirus A | cytopathic effect | Vero, EV71 | 48 h | 82.3 µM
Cc1ccc(Cn2cc(/C=N/N3C(=O)CSC3=S)c3cc([N+](=O)[O-])ccc32)cc1 | Trypanosoma equiperdum | – | trypomastigotes, IVM-t1 | – | > 58 µM
CNc1cc(C(=O)CNc2ccc(Cl)cc2)ccc1OC | Enterovirus A | cytopathic effect | Vero, EV71 | 48 h | > 24.4 µM
O=C(O)c1ccc(C2Sc3ccccc3NC3=C2C(=O)c2ccccc23)cc1 (stereo not drawn) | Chlamydia trachomatis | inclusion formation, immunofluorescence imaging | HEp-2, serovar L2 | 24 h post-infection, added 8 h post-infection | > 25 µg/mL
CCC(=O)Nc1cc(C(=O)CNc2ccc(C)cc2)ccc1OC | Enterovirus A | cytopathic effect | Vero, EV71 | 48 h | > 22.7 µM
O=C1CSC(=S)N1/N=C/c1cn(Cc2ccccc2)c2ccc([N+](=O)[O-])cc12 | Trypanosoma equiperdum | – | trypomastigotes, IVM-t1 | – | > 60 µM

Repeated from above:
SMILES | organism | assay | test system | setting | IC50
CCC(=O)Nc1cc(C(=O)CNc2ccc(C)cc2)ccc1OC | Enterovirus A | cytopathic effect | Vero, EV71 | 48 h | > 22.7 µM
O=C1C(=O)N(CC#CCN2CCN(c3ccnc4cc(Cl)ccc34)CC2)c2ccccc21 | Tritrichomonas foetus | growth | D1 | – | 22.2 µM
